# Assay results pooled from the literature.
# Parts stem from different laboratories: compare values within a part only.

# Study 1 — method: RNA Bind-n-Seq; form: RNA; medium: in vitro; concentration: 365 nM; reference: no-protein control; direction: higher = stronger binding
# Target: RNA binding protein fox-1 homolog 2, RRM domain, GST-SBP tag (RBFOX2, Homo sapiens, UniProt O43251-10, residues 100-194)
# Notes: natural RNA segment, single round, ends assumed
# Target sequence (chain): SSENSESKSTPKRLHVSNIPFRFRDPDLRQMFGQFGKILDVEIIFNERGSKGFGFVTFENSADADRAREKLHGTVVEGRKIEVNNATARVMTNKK
Oligonucleotide,RBNS enrichment (R)
GGGAGUUCUACAGUCCGACGAUCACAAAAGGCACUGAGGAACUUGCACCCCUUCCAGGGAGGGUGUCCAAGUAGCACCGUUCCUGCCCAGUGGGAAAGCAAUCCCAACAUGUCUGAGAUGUUCGGACUUUUAAUGGAAUUCUCGGGUGCCAA,0.253
GGGAGUUCUACAGUCCGACGAUCUUUUAGGCAACUGCUUUUUCCAUGUUCUGAGAUCUACGGGCUACAACAAAUUUUAUCAGCAGUGUUUUUUGUUUUUUUGAGAUGGAGACUUGCUCUGUCGCCCAGGCUGGUGGAAUUCUCGGGUGCCAA,0.758
GGGAGUUCUACAGUCCGACGAUCAAAGGAAAUACUUCAAAACCUUGUUCAUUACCUAGACCAGUUAUUAUCUGUCUGGACAUAGUUGUGUUCCUCUAAAUUGGAUGUACUAAAUAGUUUACAAGUUAUCCUACUGGAAUUCUCGGGUGCCAA,0.381

# Study 2 — method: protein binding microarray; form: double-stranded DNA, one strand shown; medium: in vitro; concentration: not given; reference: not given; direction: higher = stronger binding
# Target: Histone acetyltransferase KAT6A, both winged helices, GST fusion (KAT6A, Homo sapiens, UniProt Q92794, residues 1-181)
# Notes: 8-mer, flanks averaged, mean of 2 arrays, mostly near background
# Construct (chain): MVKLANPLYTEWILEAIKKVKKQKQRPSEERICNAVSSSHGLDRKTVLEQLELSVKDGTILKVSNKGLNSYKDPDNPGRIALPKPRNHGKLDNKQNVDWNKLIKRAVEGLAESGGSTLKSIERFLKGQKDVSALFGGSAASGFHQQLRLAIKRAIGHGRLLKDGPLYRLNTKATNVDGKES
Oligonucleotide,E-score
CTTCCTCC,-0.125
ACGTAAGG,-0.144
CGTTACCA,-0.159
CACATCAC,-0.0307
CACATTGA,0.0451
AACCGTCT,0.11

# Study 3 — method: protein-binding microarray; form: double-stranded DNA, one strand shown; medium: in vitro; concentration: not given; direction: higher = stronger binding
# Target: Max-binding protein MNT, bHLH-zipper, MAX partner unstated (MNT, Homo sapiens, UniProt Q99583, residues 220-300)
# Notes: k-mer, scored over probes, only values ≥0.25
# Target sequence (chain): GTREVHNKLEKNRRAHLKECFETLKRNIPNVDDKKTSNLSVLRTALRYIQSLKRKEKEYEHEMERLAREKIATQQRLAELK
Oligonucleotide,E-score
AATCACAT,0.302
ATGTCATG,0.272
GCTCCACA,0.267
AGCATGGC,0.396

# Further values, each from its own experiment
Substance,target,assay,test system,conditions,how to read,measurement,value
"PhoQ, residues 284 288 289 292 302 303 TGYLSA","PhoP, residues 12 14 15 18 19 SQCLL (Escherichia coli, UniProt P23836)","Sort-seq, measured: YFP reporter",E. coli,"PhoQ-PhoP variant library, with: 10 µM Mg2+","reference: high Mg2+ state, higher = stronger signaling",fold induction,2.1

# Some of these lines once more (study 1):
Oligonucleotide,RBNS enrichment (R)
GGGAGUUCUACAGUCCGACGAUCUUUUAGGCAACUGCUUUUUCCAUGUUCUGAGAUCUACGGGCUACAACAAAUUUUAUCAGCAGUGUUUUUUGUUUUUUUGAGAUGGAGACUUGCUCUGUCGCCCAGGCUGGUGGAAUUCUCGGGUGCCAA,0.758
